Assay results from different studies.
Parts stem from different laboratories: compare values within a part only.

Series 1
Target: Histone acetyltransferase KAT6A, both winged helices, GST fusion (KAT6A, Homo sapiens, UniProt Q92794, residues 1-181)
Technique: protein binding microarray
Molecule type: double-stranded DNA, one strand shown
Sample: in vitro
Concentration: not given
Notes: 8-mer, flanks averaged, mean of 2 arrays, mostly near background
Relative to: not given
Reading: higher = stronger binding
Target sequence (chain): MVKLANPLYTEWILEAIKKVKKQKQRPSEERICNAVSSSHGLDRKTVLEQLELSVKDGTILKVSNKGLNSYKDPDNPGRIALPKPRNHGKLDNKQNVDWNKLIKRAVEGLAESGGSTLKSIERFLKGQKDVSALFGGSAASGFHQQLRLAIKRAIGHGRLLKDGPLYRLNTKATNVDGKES
Oligonucleotide | E-score
GGGGACGA | 0.0344
AATGTTAA | -0.0272
CCTGTAGA | -0.104
GCACCTGC | 0.00546
CCTGCCGC | 0.172
GCGATGAC | 0.133
CCAAACGG | 0.152
CGGAGCGA | 0.213
CTAAGCAA | -0.0775
ATACACAT | -0.109
AGTTTTGG | -0.147
GGATTACC | -0.00513
CAGCGCTG | 0.344
CTACTCTA | -0.134
CACTAGAC | 0.0135
ATATGAGG | -0.212
CGTTACAC | 0.141
GATAGACA | -0.158
ATCTACAA | -0.143
CGGACCAA | 0.119
ACGAGACC | -0.0726
AAGAGCCT | -0.106
GCAAGTGA | -0.103

Series 2
Target: Ras GTPase-activating protein-binding protein 1, C-terminal RGG region (G3BP1, Homo sapiens, UniProt Q13283)
Chain of UniProt Q13283 (whole entry, looked up): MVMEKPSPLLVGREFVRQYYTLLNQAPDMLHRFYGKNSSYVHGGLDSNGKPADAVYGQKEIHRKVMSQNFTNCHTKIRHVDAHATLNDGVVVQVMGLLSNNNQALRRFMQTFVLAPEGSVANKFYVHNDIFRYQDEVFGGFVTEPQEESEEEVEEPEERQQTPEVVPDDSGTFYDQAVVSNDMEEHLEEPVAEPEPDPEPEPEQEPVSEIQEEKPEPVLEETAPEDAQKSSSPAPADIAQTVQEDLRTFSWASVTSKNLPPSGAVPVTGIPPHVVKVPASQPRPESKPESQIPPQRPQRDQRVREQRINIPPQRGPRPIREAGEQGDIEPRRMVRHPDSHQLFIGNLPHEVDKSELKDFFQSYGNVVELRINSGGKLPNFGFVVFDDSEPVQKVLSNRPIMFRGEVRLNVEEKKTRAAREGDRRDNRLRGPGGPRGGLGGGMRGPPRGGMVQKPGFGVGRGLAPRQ
Technique: RNA Bind-n-Seq
Molecule type: RNA
Sample: in vitro
Concentration: 1 µM
Notes: whole 134-nt RNA, ends assumed
Added: 150 mM KCl
Relative to: input library
Reading: higher = stronger binding
Shared flanks, not repeated: GGGAGUUCUACAGUCCGACGAUC … UGGAAUUCUCGGGUGUCAAGG
Oligonucleotide | log2 enrichment
AAGUCCUGUGCUACACAUCGUAUGUACCGAAUCGGGUGGGAAAAAGGGUUUUUGGGAAAGUAUUAUGUUACGCCGUUCGGAUCUGCACUU | 0.829
GCAGGAAGUAAAAACAAAUGGAAAUGCUUCGGAUAGUGGCAGGGGUGGGGGUUGCUAAGGAAAGGGUGGGAUGGGAGUAGGUAAAGAGUU | 1.79
ACCAUGCAGGUGGGCAUCUUUGGGAAGUGGGGCAAGGGGGGGAUAGGGAGGGGCGUAACACUUUGGGAACAGGUGGUCCCAGGUCGUUUC | 2.21
CUCAAGUCCUGUGCUACACAUCGUAUGUACCGAAUCGGGGAGGGAGGGAGGGGAAAGUAUUAUGUUACGCCGUUCGGAUCUGCACUUCCA | 2.76
CACAGACAACACGCACCCACACAGACACAGGGGGAAGGGGUUGGGAUGGGGACAGGGUGCACAGCAGGGCGGGGUAGGACCCCAGCCCCU | -0.219
AAGUCCUGUGCUACACAUCGUAUGUACCGAAUCGGUUUUUGGAAAAAAAGGAAAGGAAAGUAUUAUGUUACGCCGUUCGGAUCUGCACUU | -2.21
GUGCUACACAUCGUAUGUACCGAAUCGGGGUUUUUUUGGGGAAAAAAAGGGGUUUUUUUGGGGAAAGUAUUAUGUUACGCCGUUCGGAUC | 0.657
UACUCAGCACAGAAAUUCAGGAGACACAGACAAGUUCUUCCACGAUGUCGUACAGACGAGAACUAGAGAAAUACCGUGACCUGGAUGAAG | -0.174
UGGGAGGUGGAUUUUGUUUUUUUUUUUAGCUCAUUUCCAGGGGUGGGAAUUUUUUUUUAAUAUGUGUCAUGAAUAAAGUUGUUUUUGAAA | 2.02
UCCUGUGCUACACAUCGUAUGUACCGAAUCGGGAAAAAGGGUUUUUUUGGGUUUUUGGGAAAGUAUUAUGUUACGCCGUUCGGAUCUGCA | -0.78

Series 3
Target: Centromere-binding protein 1, full length, N-terminal tag (CBF1, Saccharomyces cerevisiae, UniProt P17106, residues 1-351)
Chain of UniProt P17106 (whole entry, looked up): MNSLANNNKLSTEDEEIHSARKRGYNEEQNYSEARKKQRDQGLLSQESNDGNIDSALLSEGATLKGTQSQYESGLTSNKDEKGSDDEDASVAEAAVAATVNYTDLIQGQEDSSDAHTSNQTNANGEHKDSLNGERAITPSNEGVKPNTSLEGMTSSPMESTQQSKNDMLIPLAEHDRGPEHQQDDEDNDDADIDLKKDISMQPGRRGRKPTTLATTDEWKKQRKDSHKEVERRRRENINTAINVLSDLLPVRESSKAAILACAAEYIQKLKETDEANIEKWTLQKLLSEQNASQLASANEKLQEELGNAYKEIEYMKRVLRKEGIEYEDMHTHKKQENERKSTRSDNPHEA
Technique: protein-binding microarray
Molecule type: double-stranded DNA, one strand shown
Sample: in vitro
Concentration: 0.8 µM
Notes: whole 60-bp probe, no competitor
Reading: higher = stronger binding
Shared flanks, not repeated: … GTCTTGATTCGCTTGACGCTGCTG
Oligonucleotide | fluorescence intensity
GAACTATTCGGGACTGATGTCATATAGAAACATTAG | 572 a.u.
CTATGTGTATGTTTCCACGTTTCTGCCTTGTGCTTC | 558 a.u.
GAATTGAAAAGATGGAACGTGCTGCTGCTGATGTAG | 654 a.u.
TGTACGAAGCTATTGTGCGTGCGTATAGTAGTTAGG | 531 a.u.
GAACCAAACTTTTAGTACGTGCCACATACACGCTAG | 562 a.u.
CTAGCTAACCAACGTGTTGTATATGAAACCCATTTC | 570 a.u.
CTAGCATGCGACGGTATCCACGTGCAGAACAACTTC | 4560 a.u.
CTAGAGCTTCCAGGTCACGGTCTACGGCGGGCGTTC | 983 a.u.
GAAGTAACAAAAAATCAGGTGAGTAATATCAGTTAG | 936 a.u.
GAACACTACCTTCATCACCCGTACGAGTATTAATAG | 536 a.u.
CTAATTTTCCTCTCTGATGTCCTTTACACCTTCTTC | 508 a.u.
CTATTGATATGCATGCATGTGGACGCAAGCACATTC | 659 a.u.
CTAACGATGCTGCACGTGGTTAGTTTTGTAAGCTTC | 7260 a.u.
GAATAGAAGAGTGTGCACATGCTTGGTTTGGCGTAG | 798 a.u.
CTAAAATTCCCACATCACGTGAATCAGGAGGCGTTC | 12500 a.u.
TGTACGAAGCTATCCTTCGTGCCTATAGTAGTTAGG | 497 a.u.
GAATAGCAGCTTACATAGGTGGTGGCACTACCATAG | 485 a.u.
GAAGACTTCGAACGTGATATCATTCCAATGGCTTAG | 966 a.u.
GAAAGATAAACAATTCACATGAATGTCAAAATTTAG | 544 a.u.
GAACTTATAACCACAAACGTGTATATTAAGAAATAG | 584 a.u.

Series 4
Target: RNA binding protein fox-1 homolog 2, RRM domain, GST-SBP tag (RBFOX2, Homo sapiens, UniProt O43251-10, residues 100-194)
Technique: RNA Bind-n-Seq
Molecule type: RNA
Sample: in vitro
Concentration: 365 nM
Notes: natural RNA segment, single round, ends assumed
Relative to: no-protein control
Reading: higher = stronger binding
Shared flanks, not repeated: GGGAGUUCUACAGUCCGACGAUC … UGGAAUUCUCGGGUGCCAA
Construct (chain): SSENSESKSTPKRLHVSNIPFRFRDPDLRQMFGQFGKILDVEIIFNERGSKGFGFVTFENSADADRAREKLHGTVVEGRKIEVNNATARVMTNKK
Oligonucleotide | RBNS enrichment (R)
GUGUCUAUUAUCACAUUAAUCUCAAAGAGAUUCGAAUGACGGUAAGUGUUCUCAUGAAGCAGGAGGCCCUUGUCGUGGGAUGGCAUUUGGUCUCAGGCAGCACCACACUG | 0.564
AUAUAUAUAUUUGGCAACUUGUAUUUGUGUGUAUAUAUAUAUAUAUAUGUUUAUGUAUAUAUGUGAUUCUGAUAAAAUAGACAUUGCUAUUCUGUUUUUUAUAUGUAAAA | 1.14
ACGCAGCCAGGCAUUCAGGGGUGUGUUUGCCACAUGGAGCAUCCCUUCCUGGUCUUGCCAGGCACCUGCACAGAGCGUCUCCAGCCCCAUCUCCUAACGGGGGCUGGGGG | 0.504
GAACUAAAUCUGUGGAAUGCAUUGUGAACUGUAAAAGCAAAGUAUCAAUAAAGCUUAUAGACUUAAAUAUGCUUUGGUAUUUUCAUUUCAUGAAAUUGCAGCAGAUUAAA | 0.409
GGCUGGAAGCCCUCCCUCCACUUAAGUUAUUGUUUUAAACCAAAGUUUACAGUGUCUGUUGGUGGCCAAGACCUUCUCUCUCCACCCCUCCUCCAUCCACCCUGAGGACC | 0.961
CUAUCCACCCCCCUCCUUGCUGGCCUACUCUGACAUAAUACAAGUGUCUUCUUGCCUUGAGGAACCUUAAUGGCAUUGUGGCCACCACAUGUGACUCUUCUCCGUGACUC | 0.383
CAGGCAGCAGCCGCCCAUCUCGCCCCAACUGUUGGCUCCAGGCAGGGCUGGGCAGCAGGGAGCCUGGGACUGAACAAUAAACCCAUGAUCUCCUGCCUCACACACCUGUU | 0.393
AAAGCCAGAAGAGCAGCCUCGGGAAAGACAGACGGAAGUCCGGCAACCCAGCUGUAGGCGCUUACACUGAAAUCUAAGUCUGUAUAGUGAACGCCAGCGGCGGCCGACUU | 0.277
CCCCGCCAUGCUGCUCUGCUUGUCACAGACGUCCUGUGGGUUGGUUGUGACAGCAUCUUCACCACUUUGGGGACCAUCCAGAGUGGGGGAGUGGGGGAGACUUCACCCUG | 0.244
AGUUUUCAAAUUCAAUUAAGAUAACUAGAAUUGGAUUAUGGUGUAAAAAUAAAAAAAAAAUUUAUUCACAUAAGUUUCAAGACUGCUCUGUCCCUCACAUGUACACAUAC | 0.613
AACAUUCAUUGUAUUUUGGUCUUGAGAAAUGCCUAUAGUUUUCCAAAUUAUUCUUGUACAGUUUUAUUUGUACAGUUCAGUGUAACCACCUAUCAUCUUGUUAACACUAG | 0.488
GAAAUAAAAGCAAAGCACCUGUAUGGCUGCCACUCUUUUUGACCCUUGCUUUCCUCCCUCCUCUUUUUCCCCCAGCCUUCCCCUUUCCUUUUUCCUACCUCUCUCUGUUC | 1.39
